Measured values pooled from the literature.
Numbered parts are unrelated; each lists some results of a single study. Substitutions count along the parent as printed.

Set 1 — technique: EMSA with sequencing; form: double-stranded DNA, one strand shown; medium: in vitro; concentration: 10 and 20 nM; relative to: negative control set to 0; direction: higher = stronger binding
Target: Hepatocyte nuclear factor 3-alpha (Foxa1, Mus musculus, UniProt P35582, residues 1-468, full length assumed)
Notes: whole designed probe, mean of two concentrations, ends assumed
Target sequence (chain): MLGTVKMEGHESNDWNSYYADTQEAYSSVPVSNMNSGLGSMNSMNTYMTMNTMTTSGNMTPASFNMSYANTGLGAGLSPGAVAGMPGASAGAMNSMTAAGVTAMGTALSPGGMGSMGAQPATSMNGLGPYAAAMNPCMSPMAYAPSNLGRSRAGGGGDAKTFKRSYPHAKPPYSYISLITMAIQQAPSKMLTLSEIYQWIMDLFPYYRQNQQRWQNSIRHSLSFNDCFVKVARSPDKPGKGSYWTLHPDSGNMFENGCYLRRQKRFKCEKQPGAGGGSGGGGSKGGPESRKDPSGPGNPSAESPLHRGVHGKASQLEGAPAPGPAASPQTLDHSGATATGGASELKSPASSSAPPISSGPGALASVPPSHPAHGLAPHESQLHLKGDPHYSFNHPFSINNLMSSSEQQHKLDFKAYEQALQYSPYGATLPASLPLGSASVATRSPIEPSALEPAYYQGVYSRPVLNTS
Sequence	normalised bound fraction [ratio]
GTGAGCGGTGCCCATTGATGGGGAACCATTTGCCTCACACAGAGTTACAAAAGTTACACCCTGTTTTCAGAAAAACTTTCCCAATACAGGCAGAGAGTTCATGTTTATTTCATAAACCTTGTTTGCTTACATGTTCCAACCATTTTACAAATACTAACTCATTAAATCCTCATAACAACTCAATGGGGTAGGTTGTATTATTACCTTCATTTTACAGGTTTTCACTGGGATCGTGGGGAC	0.248
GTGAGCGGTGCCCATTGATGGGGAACCCACATCACACTGTTGCCACAAGCAGGATACAGTCATCACACAAACAGAGGATTATTACTTCTCAGCCACTCTTCTGCTATCTTCTTACTGAGTAAACATCGAGAACTCAGTCCTTTGTGATGTACTAATATGAAACAGGAAAGGGAAAGCCCTAGGTGGCCATGATATAGTTAGTGCCTACGTTTCCAAGAATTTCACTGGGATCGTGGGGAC	0.377
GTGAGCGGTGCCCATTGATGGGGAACCTCCAGGGTAGTTGTCCTTCCTGTGGCTGCTCACTGATCCAGGCTACTTTGATCTTGTGACTCAAAGTTCAACAAAATGTGGATGCGTCATTTTATTTACACTTCTTACGAAATCAATGGCCAGAAGGCCTCATCCAGTTGCAAGAAGTTTGGGAAATGTAGCCTTCCATATTTACAGGAATAAATGAAAAACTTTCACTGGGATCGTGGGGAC	0.33
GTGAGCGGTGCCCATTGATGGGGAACTGATGATACGTTATAGCATTTCTCTGCTCTGTAAGAGAGGCACCAGGGTCGTGTGCTGGGTCTGGGGCACATCCGGTTTTGTCCATTCGCTGCTGTTGACTCTGGTGTCGGCCGCTGGTGAGCTGGCTGTAGCTGGTCACCTCTGGGTGGTTTCTGGGGCGGTCGCAGGCTGACTAACACACCAAAGGTCAGCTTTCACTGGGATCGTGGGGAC	-0.013
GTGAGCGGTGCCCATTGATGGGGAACGTAGGCCTCTGCTGCACCTGTCAACTCCACCTGGCGGCACAGAAGCTGCCAACGGTACGTCAGTGAGTTACCTTGGCCGTGTTCCAGTGAAACAGATTACACAGGCAGGTGGAAGTGACTGTGGTGATGGTTGCGTAACTCTGTGAACACACTGGAAACCATTGAATGTGTGTACTTGATCTGAATTGCGTGGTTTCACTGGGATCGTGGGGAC	-0.0105
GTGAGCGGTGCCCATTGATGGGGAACGATTTTTGGGGATTTTTGAAAATAGCCCTATGTCTTGGATATGAGTCACAAATTGCCCCCCCCCCCACCATTTCGTCATTTGTCTCCAAGCTCTGTTTACATTGGTGTTTGCCGTGCAGAAGTTTTTCTTTAATGTAATAAAATGTAGCCATCTTTTTTAAAATGACCTCTGGACTTCATGTGTTTGGAGTTTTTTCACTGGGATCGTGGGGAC	0.361
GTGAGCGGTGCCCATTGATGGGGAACGGCTCCAAACGGCTGAATCAGCATTTTCAGAAACAAAGTGTTCTAGGCCTGGCCTTTTAGTTGTGCAATAACAGCAGCAACGAGCAAAACGCATATTTACTCACGAGCTCTCCTTGTTTTGGTCTTTCCCCCCTCCCCCCCATCTCTTGAATGAAACTGGGCACCAAGTTTGCAAGAAAATATTCTTTCAAACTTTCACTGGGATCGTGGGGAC	0.117
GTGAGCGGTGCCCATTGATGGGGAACGGCTCCAAACGGCTGAATCAGCATTTTCAGAAACAAAGTGTTCTAGGCCTGGCCTTTTAAACAGCAGCAACGAGCGTTGTGCAATAAAACGCATATTTACTCACGAGCTCTCCTTGTTTTGGTCTTTCCCCCCTCCCCCCCATCTCTTGAATGAAACTGGGCACCAAGTTTGCAAGAAAATATTCTTTCAAACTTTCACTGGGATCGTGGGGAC	0.11

Set 2 — technique: DHFR PCA, deep sequencing; medium: yeast; together with: (+)-ABA 4.8 µM; relative to: wild-type fitted maximum; direction: higher = stronger binding
Target: ABI1, truncated, D143A, DHFR fusion (Arabidopsis thaliana)
Notes: methotrexate growth selection, single substitutions
Parent: PYL1, truncated, DHFR fusion (Arabidopsis thaliana); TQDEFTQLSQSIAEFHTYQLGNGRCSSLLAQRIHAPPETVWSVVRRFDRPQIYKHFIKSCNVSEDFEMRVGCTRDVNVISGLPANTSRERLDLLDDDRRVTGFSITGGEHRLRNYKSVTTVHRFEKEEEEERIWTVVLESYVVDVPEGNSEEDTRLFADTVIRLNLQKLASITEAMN
Variant	relative binding score
E131F	59.7%
V161S	-11.1%
N85T	90%
L156Q	45.2%
I52L	71.6%
N85E	83.4%
L156A	74.2%
G21D	71.4%
Q2K	72.1%
H16V	5.97%
T135C	63.6%
Y141T	-5.71%
S140G	-7.14%
F124Y	78.1%
N177M	87.8%
S104P	-8.42%
Q19R	73.7%
D48P	-7.58%

Set 3 — target: HLF, bZIP domain (human); technique: DHFR protein complementation; medium: yeast; relative to: wild-type JUN-FOS pair; direction: higher = stronger binding
Notes: single substitutions, most at no-binding floor
Parent: JUN, bZIP domain (human); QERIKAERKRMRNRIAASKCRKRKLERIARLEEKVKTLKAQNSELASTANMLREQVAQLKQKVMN; partner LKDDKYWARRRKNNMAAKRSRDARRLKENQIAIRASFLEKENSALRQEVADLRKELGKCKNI
Variant	binding fitness [natural log]
E33D	-1.38
S47Q	-1.41
A40H	-1.35
K39D	-1.39
A40E	-1.3
A49D	-1.61
M51Q	-1.38
L45K	-1.43
K36I	-1.26
S47L	-1.39
V35K	-1.44
A57P	-1.54

Set 4 — target: UBE2U UBC core domain (UniProt Q5VVX9); technique: yeast two-hybrid; medium: yeast; notes: mostly zero background; relative to: not given; direction: higher = stronger interaction
B1: TRIM37 RING domain (UniProt O94972); chain SVESIAEVFRCFICMEKLRDARLCPHCSKLCCFSCIRRWLTEQRAQCPHCRAPLQLRELVN
B2: TRIM26 RING domain (UniProt Q12899); chain PLRSLEEEVTCSICLDYLRDPVTIDCGHVFCRSCTTDVRPISGSRPVCPLCKKPFKKENIRP
B3: RNF166 RING domain (UniProt Q96A37); chain GDSGLEAQYTCPICLEVYHRPVAIGSCGHTFCGECLQPCLQVPSPLCPLCRLPFDPKKVDK
B4: RNF187 RING domain (UniProt Q5TA31); chain ALPAGPAEAACALCQRAPREPVRADCGHRFCRACVVRFWAEEDGPFPCPECADDCWQRAVEP
B5: RNF31 RING domain (UniProt Q96EP0); chain AFLRRLLAQECAVCGWALPHNRMQALTSCECTICPDCFRQHFTIALKEKHITDMVCPACGRPDLTDDTQLL
B6: TRIM54 RING domain (UniProt Q9BYV2); chain SMDNLEKQLICPICLEMFSKPVVILPCQHNLCRKCANDVFQASNPLWQSRGSTTVSSGGRFRCPSCRHEVVLDRHGV
B7: DEF8 RING domain (UniProt Q6ZN54); chain AGRLGCSLTEIHTLFAKHIKLDCERCQAKGFVCELCREGDVLFPFDSHTSVCADCSAVFHRDCYYDNSTTCPKCARLSLRK
Target sequence (chain): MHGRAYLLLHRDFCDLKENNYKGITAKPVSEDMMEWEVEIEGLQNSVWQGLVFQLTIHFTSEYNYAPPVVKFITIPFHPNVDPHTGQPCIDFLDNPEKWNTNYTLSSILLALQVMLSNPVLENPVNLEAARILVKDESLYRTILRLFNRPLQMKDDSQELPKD
Molecule	lacZ reporter activity
B1 (TRIM37 RING domain)	4990
RYRQMEERITCPICIDSHIRLVFQCGHGACAPCGSALSACPICRQPIRDRIQIF (MIB2 RING domain (UniProt Q96AX9))	0
YPEEVDDDLICHICLQALLDPLDTPCGHTYCTLCLTNFLVEKDFCPMDRKPLVLQHCKK (LNX1 RING domain (UniProt Q8TBB1))	0
B2 (TRIM26 RING domain)	0
B3 (RNF166 RING domain)	15700
B4 (RNF187 RING domain)	0
B5 (RNF31 RING domain)	7420
B6 (TRIM54 RING domain)	16400
B7 (DEF8 RING domain)	2700

Set 5 — target: CCNB1, cyclin fold, Cln2 fusion (human); technique: yeast growth competition, sequencing; medium: yeast; notes: weak parent motif; relative to: not given; direction: higher = stronger binding
Parent: RB1 docking peptide (human); PKPLKKLRFDIEG
Variant	normalised enrichment score
R8G	0.425
F9K	0.42
E12H	0.336
I11W	0.578
K6F	0.585
P1A	0.769
I11M	0.415
K2Y	1.12
L7K	0.535
L7R	1.07
E12W	0.646

Set 6 — technique: universal PBM; form: double-stranded DNA, one strand shown; medium: in vitro; concentration: 600 nM; direction: higher = stronger binding
Target: Sal-like protein 4, full length isoform A (SALL4, Homo sapiens, UniProt Q9UJQ4, residues 1-1053)
Sequence of UniProt Q9UJQ4 (whole entry, looked up): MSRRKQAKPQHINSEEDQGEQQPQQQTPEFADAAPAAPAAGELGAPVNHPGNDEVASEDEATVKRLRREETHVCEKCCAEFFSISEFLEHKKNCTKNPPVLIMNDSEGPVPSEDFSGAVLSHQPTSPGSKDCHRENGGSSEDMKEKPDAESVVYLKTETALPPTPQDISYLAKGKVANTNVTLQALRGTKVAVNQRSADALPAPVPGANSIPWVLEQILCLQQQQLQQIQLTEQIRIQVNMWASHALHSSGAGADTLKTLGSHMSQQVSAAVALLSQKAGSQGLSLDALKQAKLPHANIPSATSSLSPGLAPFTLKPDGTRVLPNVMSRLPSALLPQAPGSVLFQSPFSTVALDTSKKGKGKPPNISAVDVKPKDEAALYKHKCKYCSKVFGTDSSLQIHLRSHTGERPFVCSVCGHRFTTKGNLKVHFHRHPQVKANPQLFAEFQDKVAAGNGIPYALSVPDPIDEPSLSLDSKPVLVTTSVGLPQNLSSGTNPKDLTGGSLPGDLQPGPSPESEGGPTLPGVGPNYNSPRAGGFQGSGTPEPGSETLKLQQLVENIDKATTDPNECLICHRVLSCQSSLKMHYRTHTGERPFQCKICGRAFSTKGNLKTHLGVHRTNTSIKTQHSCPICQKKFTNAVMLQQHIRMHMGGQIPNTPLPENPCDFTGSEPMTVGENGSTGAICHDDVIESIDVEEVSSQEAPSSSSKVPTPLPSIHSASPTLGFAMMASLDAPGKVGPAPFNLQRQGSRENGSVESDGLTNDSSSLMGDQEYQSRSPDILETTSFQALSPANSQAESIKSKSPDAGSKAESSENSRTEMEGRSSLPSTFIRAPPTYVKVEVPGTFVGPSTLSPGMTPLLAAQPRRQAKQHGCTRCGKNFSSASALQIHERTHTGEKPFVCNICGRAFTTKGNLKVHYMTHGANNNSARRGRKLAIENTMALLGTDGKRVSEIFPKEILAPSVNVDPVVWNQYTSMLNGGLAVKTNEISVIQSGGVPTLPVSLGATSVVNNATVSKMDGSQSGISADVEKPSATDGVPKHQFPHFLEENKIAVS
Notes: 8-mer, flanks averaged, mean of replicates
Sequence	E-score
ATGGGACC	-0.19
AGAACTAC	0.05
CGATAGCA	-0.151
AGTTGCAT	0.151
CGATCACG	-0.106
GCTCTACA	-0.0268
CGGAATAA	0.0948
CGCTTTAG	-0.0919
CTTACTGC	0.0168
TCGTACGA	0.133
GCTTGCCC	-0.285
GCACCGCC	-0.418
ACGCTCAC	-0.133
AGCGCACC	-0.198
AAAATTTC	0.2
TCCAGAGA	-0.145

Some of these lines once more (set 5):
Variant	normalised enrichment score
L7R	1.07
I11M	0.415
E12H	0.336
P1A	0.769
L7K	0.535
E12W	0.646
F9K	0.42
K6F	0.585
